Measured values gathered from unrelated publications.
Compare with care: the assays were run in different laboratories. ± marks the error that the study gave.

| Compound | tested on | test | system | setting | how to read | measurement | value |
| --- | --- | --- | --- | --- | --- | --- | --- |
| NC1CCN(C(=O)Oc2ccc(C3CCCC4(C3)OOC3(O4)C4CC5CC(C4)CC3C5)cc2)CC1 (racemic) |  |  | male Sprague-Dawley rat, plasma | intravenous, 10 mg/kg |  | AUC(0-inf) | 2910 ng·h/mL |
| CC[C@H](C)[C@H](N)C(=O)N[C@@H](CCCNC(=N)N)C(=O)N[C@H](C(=O)N[C@@H](Cc1c[nH]c2ccccc12)C(=O)N[C@@H](CCCCN)C(=O)N[C@@H](CCCCN)C(=O)N[C@H](C(=O)N[C@H](C(=O)N[C@@H](CCCNC(=N)N)C(=O)N[C@@H](CCCCN)C(=O)N[C@@H](CCSC)C(=O)N[C@@H](CCCCN)C(=O)N[C@@H](C)C(=O)N[C@H](C(=O)N[C@@H](Cc1ccc(O)cc1)C(=O)N[C@@H](Cc1c[nH]cn1)C(N)=O)[C@@H](C)CC)C(C)C)[C@@H](C)CC)C(C)C |  | reversed-phase UPLC | C18 column, TFA |  |  | elution acetonitrile content | 45.6% |
| COc1cnc2cccc(N3CCc4c(cc(Cn5ccnc5)cc4-c4cn(C)nc4C(F)(F)F)C3=O)c2c1 |  |  | CD-1 mice | intraperitoneal, 150 mg/kg once daily, day 5 |  | body weight | 30.7 ± 1.8 g |
| Cn1nc(NS(C)(=O)=O)c2c(Cl)ccc(-n3c([C@H](Cc4cc(F)cc(F)c4)NC(=O)Cn4nc(C(F)F)c5c4C(F)(F)[C@@H]4C[C@H]54)nc4nc(OCCC(F)(F)F)ccc4c3=O)c21 |  |  | human, plasma | oral, 200 mg single dose, powder in bottle, geometric mean |  | AUC(0-inf) | 11600 ng·h/mL |
| CSCC[C@H](NC(=O)CNC(=O)[C@H](CCCCN)NC(=O)[C@H](CC(C)C)NC(=O)[C@@H]1CCCN1C(=O)[C@H](CO)NC(=O)[C@H](Cc1c[nH]cn1)NC(=O)[C@H](Cc1c[nH]c2ccccc12)NC(=O)[C@H](CCCNC(=N)N)NC(=O)[C@H](CC(C)C)NC(=O)[C@H](CCCNC(=N)N)NC(=O)[C@H](Cc1c[nH]c2ccccc12)NC(=O)[C@H](CS)NC(=O)CCCCCNC(=O)CN1CCN(CC(=O)O)CCN(CC(=O)O)CCN(CC(=O)O)CC1)C(=O)O [copper-64 labelled] |  | PET | C57BL/6J mice, B16-F10 tumour, kidney | intravenous, 18 h |  | tissue uptake | 4.45 ± 0.58 %ID/g |
| CC[C@H](C)[C@H](NC(=O)[C@H](CC(N)=O)NC(=O)[C@H](CC(C)C)NC(=O)[C@@H](NC(=O)[C@@H](N)Cc1ccccc1)[C@@H](C)CC)C(=O)N[C@@H](CC(C)C)C(=O)N[C@@H](CC(=O)O)C(=O)N[C@@H](CCCCN)C(N)=O |  |  | horse erythrocytes | 2 h, 37 °C | baseline: Triton X-100 | HC50 | > 128 µM |
| CCOC(=O)CNC(=O)CN1CCN(CC(=O)NCC(=O)OCC)CCN(CC(=O)NCC(=O)OCC)CCN(CC(=O)NCC(=O)OCC)CC1.[177Lu+3] |  |  | rat | intravenous, 0.1 mmol/kg |  | time to death | ≤ 1 min |
| CC[C@H](C)[C@H](NC(=O)[C@H](CCCCN)NC(=O)CNC(=O)[C@H](CC(C)C)NC(=O)[C@H](Cc1ccccc1)NC(=O)[C@H](CCCCN)NC(=O)[C@H](CO)NC(=O)[C@H](Cc1ccccc1)NC(=O)[C@H](Cc1c[nH]c2ccccc12)NC(=O)[C@H](CCC(N)=O)NC(=O)[C@@H](NC(=O)[C@H](Cc1ccccc1)NC(=O)CCCCCNC(=O)CN1CCN(CC(=O)O)CCN(CC(=O)O)CCN(CC(=O)O)CC1)C(C)C)C(=O)N[C@@H](CCC(=O)O)C(=O)N1CCC[C@H]1C(=O)N[C@@H](CC(=O)O)C(=O)N[C@H](C(=O)N[C@@H](CO)C(=O)N[C@@H](CCC(N)=O)C(=O)N[C@H](C(=O)N[C@@H](CCC(N)=O)C(=O)N[C@@H](CC(=O)O)C(=O)N1CCC[C@H]1C(=O)N[C@@H](CC(N)=O)C(=O)N[C@@H](CC(=O)O)C(=O)N[C@@H](CCC(N)=O)C(=O)N[C@@H](Cc1ccc(O)cc1)C(=O)N[C@@H](CCC(=O)O)C(=O)N1CCC[C@H]1C(=O)N[C@@H](Cc1ccccc1)C(=O)O)C(C)C)C(C)C [copper-64 labelled] |  |  | BALB/c mice, male, CT26 tumour-bearing, muscle | 2 h, anti-PD1 plus anti-CTLA4 treated |  | tissue uptake | 0.35 ± 0.1 %ID/g |
| CCCCC(CC)COC(=O)CC(C(=O)OCC(CC)CCCC)S(=O)(=O)O.CCCSc1ccc2[nH]c(NC(=O)OC)nc2c1 (stereo not shown) |  | visual inspection | Miglyol 812 |  |  | solubility | < 5000 µg/mL |
| CC(C)[C@@H]1NC(=O)CNC(=O)[C@H](CC(N)=O)NC(=O)[C@H](CCCNC(=N)N)NC(=O)[C@H](Cc2ccc(O)cc2)NC(=O)[C@H](C(C)C)NC(=O)[C@@H](NC(=O)[C@@H](NC(=O)[C@H](CC(N)=O)NC(=O)[C@H](Cc2c[nH]c3ccccc23)NC(=O)[C@H](C)NC(=O)[C@H](Cc2ccccc2)NC(=O)CNC(=O)[C@H](CCCCN)NC(=O)[C@H](Cc2ccccc2)NC(=O)[C@H](Cc2ccccc2)NC(=O)[C@H](CCCCN)NC(=O)OCC2c3ccccc3-c3ccccc32)C(C)C)CSSC[C@@H](C(=O)N[C@@H](Cc2c[nH]cn2)C(=O)N[C@@H](CCCNC(=N)N)C(=O)N[C@@H](CCCNC(=N)N)C(=O)N[C@@H](C)C(=O)N[C@@H](CC(N)=O)C(N)=O)NC(=O)[C@H](C(C)C)NC(=O)[C@H](CCCNC(=N)N)NC1=O |  |  | ICR mice, serum | intraperitoneal, 10 mg/kg, day 5 |  | creatinine | 83.2 ± 3.68 µmol/L |
| CC(C)C[C@@H](NC(=O)[C@@H](CCCCN)NC(=O)CNC(=O)CNC(=O)[C@@H]1CSSC[C@H](N)C(=O)NCC(=O)N[C@@H](CCCNC(=N)N)C(=O)N[C@@H](CCCNC(=N)N)C(=O)N[C@@H](C)C(=O)NCC(=O)NCC(=O)N[C@@H](CO)C(=O)N1)C(=O)N[C@H](C)C(=O)N[C@H](CCCCN)C(=O)N[C@H](CC(C)C)C(=O)N[C@H](C)C(=O)N[C@H](CCCCN)C(=O)N[C@H](CCCCN)C(=O)N[C@H](CC(C)C)C(=O)N[C@H](C)C(=O)N[C@H](CCCCN)C(=O)N[C@H](CC(C)C)C(=O)N[C@H](C)C(=O)N[C@H](CCCCN)C(=O)O |  |  | mouse, plasma | intravenous, 15 mg/kg |  | AUC | 164000 ng·h/mL |
| Cc1nc2cccc(OCC(C)(C)C(=O)NC(C)C)c2c(N)c1C(=O)[O-].[Na+] | Salmonella typhimurium |  | TA100 | 5.0 mg per plate, without S9, preincubation |  | revertant colonies per plate | 125 ± 11 |
| COc1ccccc1-c1n[nH]c2nc(NC3CCN(C(=O)Cc4ccc(F)cc4F)CC3)ncc12 |  | bead binding, competition bead pull-down, item: LINJ.35.3130 | Leishmania donovani extract | 10 µM | baseline: vehicle | relative abundance | 1.12 |
| N=C(N)NCCC[C@H](NC(=O)[C@H](CCCNC(=N)N)NC(=O)[C@H](CCCNC(=N)N)NC(=O)[C@H](CCC(N)=O)NC(=O)[C@H](CCCNC(=N)N)NC(=O)[C@H](CCCNC(=N)N)NC(=O)[C@H](CCCCN)NC(=O)[C@H](CCCCN)NC(=O)[C@H](CCCNC(=N)N)NC(=O)CNC(=O)[C@H](Cc1ccc(O)cc1)NC(=O)[C@H](Cc1ccccc1)NC(=O)[C@H](Cc1ccccc1)NC(=O)[C@H](Cc1ccccc1)NC(=O)OCC1c2ccccc2-c2ccccc21)C(=O)O |  |  | C57BL/6 mice | intraperitoneal, 20 mg/kg, 6 h | direction not given | health score | 5 |
| CC(C)[C@H](NC(=O)[C@@H](NC(=O)[C@H](CCCNC(=N)N)NC(=O)[C@H](CCCNC(=N)N)NC(=O)[C@H](CCCNC(=N)N)NC(=O)[C@H](CCC(N)=O)NC(=O)[C@H](CCCNC(=N)N)NC(=O)[C@H](CCCNC(=N)N)NC(=O)[C@H](CCCCN)NC(=O)[C@H](CCCCN)NC(=O)[C@H](CCCNC(=N)N)NC(=O)CN)[C@@H](C)O)C(=O)N[C@H](C(=O)N[C@@H](CO)C(=O)N1CCC[C@H]1C(=O)O)[C@@H](C)O |  |  | ICR mice, male, brain | intranasal, 5 mg/kg daily, 4 weeks |  | organ weight | 0.616 ± 0.073 g |
| CC[C@H](C)[C@H](NC(=O)[C@H](CC(C)C)NC(=O)CNC(=O)[C@H](Cc1c[nH]cn1)NC(=O)[C@@H](NC(=O)[C@H](Cc1c[nH]c2ccccc12)NC(=O)[C@H](CCCCN)NC(=O)CNC(=O)[C@@H](NC(=O)[C@H](Cc1c[nH]cn1)NC(=O)[C@H](Cc1c[nH]cn1)NC(=O)[C@@H](NC(=O)CNC(=O)[C@H](Cc1c[nH]cn1)NC(=O)[C@H](Cc1ccccc1)NC(=O)[C@H](CC(C)C)NC(=O)[C@H](CC(C)C)NC(=O)CNC(=O)[C@H](CC(C)C)NC(=O)[C@@H](N)Cc1ccccc1)C(C)C)C(C)C)[C@@H](C)CC)C(=O)N[C@@H](Cc1c[nH]cn1)C(=O)NCC(=O)N[C@@H](Cc1c[nH]cn1)C(=O)N[C@@H](Cc1c[nH]cn1)C(N)=O |  |  | zebrafish embryos 4 hpf, E3 medium | 24 h |  | chronic toxic concentration | 5 µM |
| CCCCCCCCCCCCCCCC(=O)N[C@@H](CCC(=O)NCCOCCOCCC(=O)NCCOCCOCCC(=O)NCCCC[C@H](NC(=O)[C@H](CC(=O)O)NC(=O)[C@H](CC(C)C)NC(=O)[C@H](Cc1ccc(O)cc1)NC(=O)[C@H](CCCCN)NC(=O)[C@H](CO)NC(=O)[C@H](Cc1ccc(O)cc1)NC(=O)[C@H](CC(=O)O)NC(=O)[C@H](CO)NC(=O)[C@@H](NC(=O)[C@H](Cc1ccccc1)NC(=O)[C@@H](NC(=O)CNC(=O)[C@H](CCC(N)=O)NC(=O)[C@@H](CO)NC(=O)[C@@H](N)Cc1c[nH]cn1)[C@@H](C)O)[C@@H](C)O)C(=O)N[C@@H](CCCNC(=N)N)C(=O)N[C@@H](CCCNC(=N)N)C(=O)N[C@@H](C)C(=O)N[C@@H](CCC(N)=O)C(=O)N[C@@H](CC(=O)O)C(=O)N[C@@H](Cc1ccccc1)C(=O)N[C@H](C(=O)N[C@@H](CCC(N)=O)C(=O)N[C@@H](Cc1c[nH]c2ccccc12)C(=O)N[C@@H](CC(C)C)C(=O)N[C@@H](CC(C)C)C(=O)N[C@@H](CC(N)=O)C(=O)N[C@H](C(=O)NCC(=O)NCC(=O)N1CCC[C@H]1C(=O)N[C@@H](CO)C(=O)N[C@@H](CO)C(=O)NCC(=O)N[C@@H](C)C(=O)N1CCC[C@H]1C(=O)N1CCC[C@H]1C(=O)N1CCC[C@H]1C(=O)N[C@@H](CO)C(N)=O)[C@@H](C)O)C(C)C)C(=O)O |  | item: ALT | Sprague-Dawley rat, female | subcutaneous, 20 µg/kg once daily, 14 days |  | serum enzyme activity | 30.6 ± 4 U/L |
| CC(C)C[C@H](NC(=O)[C@H](Cc1ccc(O)cc1)NC(=O)[C@H](C)NC(=O)[C@H](CC(N)=O)NC(=O)[C@H](CC(C)C)NC(=O)[C@H](C)NC(=O)[C@@H](NC(=O)[C@H](CCCCN)NC(=O)CNC(=O)[C@@H](NC(=O)[C@H](CCCCN)NC(=O)[C@H](CCCCN)NC(=O)CNC(=O)[C@@H](NC(=O)[C@H](Cc1c[nH]cn1)NC(=O)[C@@H](NC(=O)[C@H](C)NC(=O)[C@H](CCCCN)NC(=O)[C@H](CCCCN)NC(=O)[C@H](Cc1ccccc1)NC(=O)[C@H](Cc1c[nH]c2ccccc12)NC(=O)[C@H](CCCCN)NC(=O)[C@H](CCCCN)NC(=O)[C@H](CC(C)C)NC(=O)CN)C(C)C)C(C)C)C(C)C)C(C)C)C(N)=O |  |  | zebrafish embryos 4 hpf, E3 medium | 24 h |  | chronic toxic concentration | 5 µM |
| O=C1NC2(CC2)COc2ncc(F)cc2[C@H]2COCCN2c2ccn3ncc1c3n2 |  |  | Sprague-Dawley rat, male, serum | oral, 20 mg/kg/day, end of treatment, 4-week subacute toxicity |  | serum potassium | 5.08 ± 1.04 mmol/L |

Some of these lines once more:
| Compound | tested on | test | system | setting | how to read | measurement | value |
| --- | --- | --- | --- | --- | --- | --- | --- |
| CC(C)[C@H](NC(=O)[C@@H](NC(=O)[C@H](CCCNC(=N)N)NC(=O)[C@H](CCCNC(=N)N)NC(=O)[C@H](CCCNC(=N)N)NC(=O)[C@H](CCC(N)=O)NC(=O)[C@H](CCCNC(=N)N)NC(=O)[C@H](CCCNC(=N)N)NC(=O)[C@H](CCCCN)NC(=O)[C@H](CCCCN)NC(=O)[C@H](CCCNC(=N)N)NC(=O)CN)[C@@H](C)O)C(=O)N[C@H](C(=O)N[C@@H](CO)C(=O)N1CCC[C@H]1C(=O)O)[C@@H](C)O |  |  | ICR mice, male, brain | intranasal, 5 mg/kg daily, 4 weeks |  | organ weight | 0.616 ± 0.073 g |
